Experimental data pooled from the literature.
Each line is one published result; not all experiments were run side by side.
Target: Myosin light chain kinase family member 4 (MYLK4, Homo sapiens, UniProt Q86YV6)

With `C=CC(=O)N1Cc2nc(-c3cc(-c4cc(Cl)cnc4Cl)c(F)cc3F)n(-c3ccncn3)c2C1` the inhibition was 1.8% (cell-free assay, inhibitor; 1 µM).
For `CC(C)=CC1OC(C)(C)C2C=C3C(=O)C(Cl)=CC(O)C3C3C(O)C4OC4C(=O)C132` (centres unmarked), the remaining binding was 89% (cell-free assay, competition with immobilised ligand; 10 µM).
For `COc1cc(Nc2nccc(-c3cnn4nc(OC)ccc34)n2)cc(C(F)(F)F)c1`, the remaining binding was 72% (binding, competition with immobilised ligand; 1 µM).
The inhibition of `CCn1cc(C(=O)O)c(=O)c2c(N)c(F)c(NC3CCCCC3)cc21` is reported as 13% (kinase activity; 0.1 µM, added: ATP at Km).
For `Nc1ncc2c(n1)-c1c([nH]c3ccc(C4=CCOCC4)cc13)CCC2`, the remaining binding was 0.1% (binding, competition with immobilised ligand; 1 µM).
For `C=CC(=O)N1CCc2ccc(-n3c(=O)ccc4cnc5ccc(-c6cnn(C)c6)cc5c43)cc21`, the remaining binding was 93% (KINOMEscan; 1 µM; reference: DMSO control).
`CN1CCN(Cc2ccc(-c3ccc(CO[C@H]4CCC[C@@H]4NC(=O)c4cc(-c5cnn(C)c5)cnc4N)cc3)cc2)CC1` gave an inhibition of -17% (enzyme activity, inhibitor; 0.1 µM).
`C=CC(=O)N1CCCC(n2c(=O)c3ncccc3n(Cc3ccc(Oc4ccccc4)cc3)c2=O)C1` (centres unmarked) has a remaining binding of 100% (cell-free assay, competition with immobilised ligand; 1 µM).
`CCN1CCN(Cc2ccc(C(=O)Nc3ccc(C)c(NCc4cnc5[nH]ccc5c4OC)c3)cc2C(F)(F)F)CC1` gave a remaining binding of 93% (binding, competition with immobilised ligand; 1 µM).
`Cc1cnc2nc1Nc1cccc(c1)COC/C=C/COCc1cc(ccc1OCCN1CCOCC1)N2` gave a remaining binding of 100% (binding; 0.1 µM).
The remaining binding of `Cc1ccc(-c2c(/C=C(\C#N)C(=O)NC(C)C)n(CCCO)c3ncnc(N)c23)cc1` is reported as 93% (cell-free assay, competition with immobilised ligand; 1 µM).
`Nc1ncc(-c2cc(-c3cnn(CC(F)(F)F)c3)ncc2F)nc1C(=O)NC1CNCC(F)C1` (centres unmarked) gave a remaining activity of 88.4% (enzyme activity; 1 µM; reference: DMSO control).
For `COc1cc(Nc2nc(C)cc(-c3cnn4nc(OC)ccc34)n2)cc(C(F)(F)F)c1`, the remaining activity was 100% (inhibitor; 1 µM; reference: control).
For `CNC1C[S+]2CC[S+]3CC[S+](C1)[Ru-4]321([N]=C=S)[n]2c3ccc(OC)cc3c3c4c(c5cc(F)c[n+]1c5c32)C(=O)NC4=O` (centres unmarked), the remaining binding was 97% (KinomeScan; 0.1 µM; reference: untreated).
With `COc1c(Cl)cccc1Nc1c(-c2ccncc2C#C[C@@]2(C)CCCN2C(=O)/C=C/CN(C)C)[nH]c2c1C(=O)NCC2` the remaining binding was 86% (cell-free assay, competition with immobilised ligand; 3 µM).
The remaining binding of `CNC(=O)C1CCN(c2cc(C)c(F)cc2NC(=O)c2ccc(-c3cc(O)ccc3C)c(C)c2)CC1` is reported as 100% (binding, competition with immobilised ligand; 1 µM).
For `Cc1c[nH]c2nccc(-c3ccc(C(=O)N[C@@H]4c5c(F)cc(C(F)F)cc5C[C@@H]4O)cn3)c12`, the remaining binding was 3.9% (binding, competition with immobilised ligand; 3 µM).

Excerpt of the above:
For `COc1cc(Nc2nccc(-c3cnn4nc(OC)ccc34)n2)cc(C(F)(F)F)c1`, the remaining binding was 72% (binding, competition with immobilised ligand; 1 µM).
The inhibition of `CCn1cc(C(=O)O)c(=O)c2c(N)c(F)c(NC3CCCCC3)cc21` is reported as 13% (kinase activity; 0.1 µM, added: ATP at Km).
